Results of several laboratories.
Lines come from different studies, so protocols differ. ± marks the error that the study gave.

Structure (SMILES) | cell line | test | setting | EC50 [nM]
COC(=O)[C@]1(C)C=C(C(=O)Nc2cccc(C(=O)Nc3ccc(Nc4nccc(-c5cccnc5)n4)c(C)c3)c2)C(=O)CC1 | SH-SY5Y MKK7 inducible | c-Jun Ser63 phosphorylation, inhibitor, HTRF, item: phospho-c-Jun Ser63 | 6 h, added: doxycycline | 65 ± 7
Cc1ccc(CC(=O)c2c(O)c(O)cc3c(O)c(-c4c(C)cc5c(C(=O)Cc6ccc(C)cc6)c(O)c(O)cc5c4O)c(C)cc23)cc1 | RS11846 | apoptosis, annexin V/PI flow cytometry | 1-2 d | 3000
Cc1ccc(CNC(=O)[C@H](CCc2ccccc2)NC(=O)[C@H](CCc2ccccc2)NC(=O)[C@@H](N)Cc2ccncc2)cc1 | HFF | cell viability | 72 h | 68000
NS(=O)(=O)NCC(F)(F)c1ccccc1F | rat hippocampal neurons | neuroprotection, propidium iodide | 4 h, added: hydrogen peroxide 10 µM | 0.09
C=CC(=O)N1CCCCC1C(=O)O (stereo not drawn) | AP1-luc HEK293 | AP1 reporter gene, activator, luciferase | added: FBS stimulation | 110
Cn1cncn1.[Ru+2].c1cc(-c2ccc3ccccc3n2)nc(-c2ccc3ccccc3n2)c1.c1ccc2cc3nc4c5cccnc5c5ncccc5c4nc3cc2c1 | L929 | cell viability, MTT | 4 h, green light, 10 min | 2600 ± 900
Cc1ccc(CNC(=O)[C@@H]2Cc3cccc(c3)Oc3cccc(c3)C[C@H](N)C(=O)N[C@@H](CCc3ccccc3)C(=O)N2)cc1 | HFF | cell viability | 72 h | > 50000
FC(F)(F)c1ccnc(-c2cc(C(F)(F)F)ccn2)c1.FC(F)(F)c1ccnc(-c2cc(C(F)(F)F)ccn2)c1.[Cl-].[Cl-].[Ru+2].c1csc(-c2ccc(-c3ccc(-c4ccc(-c5nc6c7cccnc7c7ncccc7c6[nH]5)s4)s3)s2)c1 | SK-MEL-28 | cell viability, resazurin | green light, hypoxia 1% O2 | 200 to 900
Cc1cc2cc(O)c(O)cc2c(O)c1-c1c(C)cc2cc(O)c(O)cc2c1O | RS11846 | ATP-lite viability | 72 h | 10000
Cc1ccc(CNC(=O)[C@@H](NC(=O)[C@H](CCc2ccccc2)NC(=O)[C@@H](NC(=O)c2cnc(C)cn2)C(C)(C)C)C(C)C)cc1 | HFF | cell viability | 72 h | 2900
Cc1ccc2c(n1)c1nc(C)ccc1c1nc3cc4ccccc4cc3nc21.[Ru+2].c1ccc(-c2cccc(-c3ccccn3)n2)nc1.c1ccncc1 | M1 murine macrophages | cell viability, MTT | 1 h, dark | > 25000
O=c1c(-c2cnn(-c3ccc(Cl)cc3)c2)c(C(F)(F)F)oc2c(O)c(O)ccc12 | subset of tumour cell lines | cytotoxicity |  | ~2000
O=C(Cc1cccc(C(F)(F)F)c1)Nc1cc(Oc2cc(F)c3nc(NC(=O)C4CC4)sc3c2)ccc1F | HT-29 | necroptosis, CellTiter-Glo | added: TNF, SMAC mimetic and zVAD (TSZ) | 4570 ± 1220
Cc1ccc(CNC(=O)[C@H](CC(C)C)NC(=O)[C@H](CCc2ccccc2)NC(=O)c2cnc(C)cn2)cc1 | HFF | cell viability | 72 h | 35000
O=C(Cc1cccc(C(F)(F)F)c1)Nc1cc(Oc2cc3sc(NC(=O)C4CC4)nc3cc2Cl)ccc1F | HT-29 | necroptosis, CellTiter-Glo | added: TNF, SMAC mimetic and zVAD (TSZ) | 44 ± 7
CN(C)CC#Cc1ccc(OCCCc2sc(N3CCc4cccc(C(=O)Nc5nc6ccccc6s5)c4C3)nc2C(=O)O)c(F)c1 | RS4-11 | cell growth or viability, ATP luminescence | 48 h | > 5000
[Ru+2].c1ccc(-c2ccc3c(n2)c2ncccc2c2nc4cc5ccccc5cc4nc32)nc1.c1ccc(-c2ccc3c(n2)c2ncccc2c2nc4cc5ccccc5cc4nc32)nc1 | M1 murine macrophages | cell viability, MTT | 1 h, dark | > 25000
Cc1ccc(CNC(=O)[C@@H](NC(=O)[C@H](CCc2ccccc2)NC(=O)[C@H](CCc2ccccc2)NCc2cnccn2)C(C)C)cc1 | HFF | cell viability | 72 h | > 50000
O=C(O)c1ccc(-c2nc(-c3cccc(C(F)(F)F)c3)cs2)cc1 | NB-4 | cell growth or viability | 72 h | 950
Cc1cc(Oc2ccc(F)c(NC(=O)Cc3cccc(C(F)(F)F)c3)c2)cc2sc(NC(=O)C3CC3)nc12 | HT-29 | necroptosis, CellTiter-Glo | added: TNF, SMAC mimetic and zVAD (TSZ) | > 10000
CC[C@H](C)[C@H](NC(=O)[C@H](CC(N)=O)NC(=O)[C@H](CCCCN)NC(=O)[C@H](Cc1ccccc1)NC(=O)[C@H](Cc1ccccc1)NC(=O)[C@H](Cc1c[nH]cn1)NC(=O)[C@@H](NC(=O)[C@@H](NC(=O)[C@@H]1CCCN1C(=O)[C@@H](N)CC(N)=O)C(C)C)C(C)C)C(=O)N[C@H](C(=O)N[C@H](C(=O)N[C@@H](C)C(=O)O)[C@@H](C)O)C(C)C | T cell clone Ob.1H8 | T cell proliferation, agonist, [3H]thymidine incorporation | 72 h, peptide-pulsed APC, added: EBV-transformed B cells DR2/DQ6 as APC | > 50000

For quick reference, copied from above:
Structure (SMILES) | cell line | test | setting | EC50 [nM]
O=C(O)c1ccc(-c2nc(-c3cccc(C(F)(F)F)c3)cs2)cc1 | NB-4 | cell growth or viability | 72 h | 950
C=CC(=O)N1CCCCC1C(=O)O (stereo not drawn) | AP1-luc HEK293 | AP1 reporter gene, activator, luciferase | added: FBS stimulation | 110
